Experimental data pooled from the literature.
Numbered parts are unrelated; each lists some results of a single study. Positions count from the first letter of the parent shown.

Sample 1 — method: RNA Bind-n-Seq; form: RNA; matrix: in vitro; concentration: 365 nM; relative to: no-protein control; direction: higher = stronger binding; endpoint: RBNS enrichment (R)
Target: RNA binding protein fox-1 homolog 2, RRM domain, GST-SBP tag (RBFOX2, Homo sapiens, UniProt O43251-10, residues 100-194)
Notes: natural RNA segment, single round, ends assumed
Constant ends, left off below: GGGAGUUCUACAGUCCGACGAUC … UGGAAUUCUCGGGUGCCAA
Residues (chain): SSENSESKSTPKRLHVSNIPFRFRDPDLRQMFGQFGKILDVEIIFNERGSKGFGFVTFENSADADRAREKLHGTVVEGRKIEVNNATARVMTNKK
AUAAGAAGCAAAGUAAAGUUUUCUGGAUCUGUGAUAAACAAUUCUUUGUUAAUUAAAGGCAAUUUUAUUACCUGUCUAAUUAAGAAUAUAUUUCCAAGUUAGCAGUUAUG: 0.365
GUACUCUGGAACCAUGCCAUCACUGAUGUCAUGCUCAUGCUACCUAGCAUGCAGGAGGAUGCCAUCUGUUUCUUUGAGCCUUGUUAGAGAAGGUAAUGCUAGAGGAAGAC: 0.981
GUGCUGGACAAAUUGACUUAAUUCUGUGCAGGCAAACACUUUGAAUCAUAAGGAUUUUUAUUGCCGCUCCAUUCUUACUACUAUUCAUGAUUCAAACAUCUACCCCUGUU: 0.83
UCGUCUGGUAUAGAAAGCGCAUGUUUCUGUAUCGGUGUCUGAUGAUAAGUUUCCUUGGAGUUUUAUGCACAUGUUUGAUUGUUCUAGAUAAAUUGUCAUAAACAUUCUAG: 31.8
UUAUUUAAGGACAUUCUUUUUUAUUGGCGGCUCCAUGGCCCUCGGCCGCUUGCACCCGCUCUCUGUUGUACACUUUCAAUCAACACUUUUUCAGACUAAAGGCCAAAACC: 0.44
GGGCACUGGGCUUGUUGGGGCCAGAAAUGUCCACGUCCUGAGCUUUCUCCUGGAGCAUGUGCAGAGAGUUUGGCAACGUUCGCUCUCUUGACCAGACCCCUUCUCCCUGA: 4.98
CCAUAUUCUAAAUUUACAUAGUUUAUUUUCAGCCUUGAGUUGGAUGUUUUUUAGAAAUAUGCCCAGAGUAAGAAGCUGUGUUGGAGCCUAAGUCCUGCAAGCUGGGUCCU: 0.418
ACGGCCGGCAAGAAUGGAUGUAAAAAUAUCUUGCUGCUUACAUCCAAAUUGCUGGUGGAUAUGGGGCUGAAGGCAGAAGCAGCUGGGAAGGGCAGUAGAGGCGCAAGCUG: 2.04
GGUUGCUUUUUUCUGGGGUCUUUGAGCUCCAAAAAAUAAACACUUCCUUUGAGGGAGAGCACACCUGCUCUCGAGUUCCUGGAGUAUCAUCGUUUUAGUACCCAAGCGUU: 0.26
AAGCUACUACAGACUAAAUUUAUGUUUCACCUAGAAUAUAAAACUGUUAGACAUUGGGUUCUCCUUUACGUUGCCCUAUUGCUUUAAUAACAUCAAGAUCUCUCCUAGUU: 0.294
AGCCUUUGUGGUUGAAAUGAAUAACGAUUCGGUUUUCUGAACUGUACACAUCCUUGUUCAGUUUUCUUUUGAUGACUAAGGCUCAGUACCAGCGAGCUGUAGGCCAUGUC: 0.326
UGUUGUACAUCUCAGGAACCCUCGGUUCCUCCACGGAUGGACGACUGCAGAAUAGAGCAGAAUAGAGAAAGUAAGCCUGAAGCUGAGUGCCUCAGCCACAAACCUAAAGG: 0.264

Sample 2 — method: DHFR PCA, deep sequencing; matrix: yeast; together with: (+)-ABA 200 µM; relative to: wild-type fitted maximum; direction: higher = stronger binding; endpoint: relative binding score
Target: ABI1, truncated, D143A, DHFR fusion (Arabidopsis thaliana)
Notes: methotrexate growth selection, single substitutions
Starting sequence: PYL1, truncated, DHFR fusion (Arabidopsis thaliana); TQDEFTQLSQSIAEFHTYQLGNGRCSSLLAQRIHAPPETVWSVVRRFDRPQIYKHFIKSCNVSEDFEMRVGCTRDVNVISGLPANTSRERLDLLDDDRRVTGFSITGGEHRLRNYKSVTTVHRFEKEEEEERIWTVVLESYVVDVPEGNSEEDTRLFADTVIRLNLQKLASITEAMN
D97K: 106%
S59N: 98.3%
T120Q: 50.1%
L156N: 90.2%
F15I: 67.2%
S87I: 25.2%
D65E: 98.8%
Y53P: 12.4%
S171L: 93.7%
F66T: 91.2%
G81S: 70.5%
F103R: -12.9%
S26R: 85.5%
C72S: 100%
Q31I: 72%
I33V: 94%

Sample 3 — target: CCNA1, cyclin fold, Cln2 fusion (human); method: yeast growth competition, sequencing; matrix: yeast; notes: weak parent motif; relative to: not given; direction: higher = stronger binding; endpoint: normalised enrichment score
Starting sequence: CDT1 docking peptide (human); PPARRRLRLSVDE
R5K: 0.511
L9F: 1.07
S10A: 0.118
E13A: 0.606
R5A: 0.0498
P1A: 0.354
R4A: 0.319
P2A: 0.401
R5A L7A: 0.201

Sample 4 — method: protein-binding microarray; form: double-stranded DNA, one strand shown; matrix: in vitro; concentration: 2540 nM top; notes: 60-bp whole probe; together with: salmon DNA 0.4 mg/ml; relative to: random background probes; direction: higher = stronger binding; endpoint: fitted relative affinity; constant ends, left off below: GCCTAGCAC … GTCTTGATTCGCTTGACGCTGCTG
Target: Interferon regulatory factor 3, full length, phosphomimetic (IRF3, Homo sapiens, UniProt Q14653, residues 1-427, S386D/S396D/S398D/S402D/T404D/S405D)
Residues (chain): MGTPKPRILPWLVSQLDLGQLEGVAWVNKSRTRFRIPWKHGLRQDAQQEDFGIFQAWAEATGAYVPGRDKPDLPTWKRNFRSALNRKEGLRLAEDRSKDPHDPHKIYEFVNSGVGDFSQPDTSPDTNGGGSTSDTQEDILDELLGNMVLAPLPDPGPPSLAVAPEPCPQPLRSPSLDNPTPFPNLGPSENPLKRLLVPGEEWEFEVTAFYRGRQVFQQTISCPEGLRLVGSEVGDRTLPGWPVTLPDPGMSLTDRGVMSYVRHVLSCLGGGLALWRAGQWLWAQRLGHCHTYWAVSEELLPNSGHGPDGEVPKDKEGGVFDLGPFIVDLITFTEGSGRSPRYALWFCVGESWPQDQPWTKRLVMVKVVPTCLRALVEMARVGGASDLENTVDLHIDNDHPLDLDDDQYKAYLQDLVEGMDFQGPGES
GACGATATCAGTTTTGAGACGTGCTAG: 1.65 z-score
GACGGTATCGACTATCGGGAAGTGCTA: 0.658 z-score
GACGAACAGGGGACTGGAGACGTGCTA: -0.563 z-score
GTAGATTTCAGACTGGATTAGTGCTAG: 0.865 z-score
TGTGTTTTCACTTTTCCTACGTGCTAG: 3.34 z-score
GACGGTATCGGAGTGGGGACGTGCTAG: 1.87 z-score
GACGGACTGGACTATCGGGCCGTGCTA: -0.596 z-score
TTAGAACTGGGAACTGGATTAGTGCTA: -0.409 z-score
TCAAGGGTCTGTTTGGGACTGTGCTAG: -0.41 z-score
GACGAACTTAGACTGGAGACGTGCTAG: -0.16 z-score
GACTGTTTCGGTTCCGGGACGTGCTAG: 9.22 z-score
GACGATTTCAGTAACGAGACGTGCTAG: 1.14 z-score
TTAGGTTCCCTTTTCCTTGAGTGCTAG: 7.3 z-score
TTAGGGTTCGGTTTCGGTTAGTGCTAG: 6.48 z-score
TCATATATCATTTAATTACTGTGCTAG: 1.03 z-score
GACGGTTTCGGTCTAGGGACGTGCTAG: 6.94 z-score
CTAGGTTTCGGGTTTCGGTTAGTGCTA: 5.98 z-score
GACGATTTCAGTTCCGAGTCGTGCTAG: 3.79 z-score
GACGGACTGGGTCCCGGGACGTGCTAG: -0.88 z-score
TCATGTCCTCCTCTCTCACTGTGCTAG: 0.663 z-score
TTAGGCATCGGGTTTCGGTTAGTGCTA: 2.1 z-score
GAATTTCCCACTTTCACTTCGTGCTAG: 3.99 z-score
TGAGGTATCGGGACTGGGTTAGTGCTA: 0.735 z-score
GCCGATTCCAGTTTCGAGACGTGCTAG: 3.96 z-score
GACAGACTGGACTATCGGGACGTGCTA: -0.362 z-score

Sample 5 — method: protein binding microarray; form: double-stranded DNA, one strand shown; matrix: in vitro; concentration: not given; relative to: not given; direction: higher = stronger binding; endpoint: E-score
Target: Histone acetyltransferase KAT6A, both winged helices, GST fusion (KAT6A, Homo sapiens, UniProt Q92794, residues 1-181)
Notes: 8-mer, flanks averaged, mean of 2 arrays, mostly near background
Target sequence (chain): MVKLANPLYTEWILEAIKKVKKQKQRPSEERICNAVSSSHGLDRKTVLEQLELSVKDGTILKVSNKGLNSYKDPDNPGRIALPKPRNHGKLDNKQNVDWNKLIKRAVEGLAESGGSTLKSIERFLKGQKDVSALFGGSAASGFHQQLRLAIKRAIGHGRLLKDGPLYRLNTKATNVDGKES
AATCATGT: -0.0932
CCAACTCC: -0.142
AGCCGCGG: 0.402
GGGGGGCA: -0.221
CAAATCGG: 0.146
AAGGACGA: -0.0592
AACATGAC: 0.0268
CGGGGCGC: 0.242
GCCCTTTA: 0.0302
CCTAAGCC: -0.122
CAATTAAA: -0.112
AGACCGTC: 0.156
GGCAGGAA: -0.0992
AGAACTTA: 0.0514
GCGTTTCC: 0.18
ATCGTTAG: 0.0314
CGGAGACG: 0.293
CATCAACG: -0.16
GTTCTGAA: -0.0119
ACGTTAGT: 0.0331
TATTGGAA: -0.127

Sample 6 — method: RNA Bind-n-Seq; form: RNA; matrix: in vitro; concentration: 20 nM; notes: 6-mer, flanks averaged, single round; together with: 150 mM KCl; relative to: input library; direction: higher = stronger binding; endpoint: 6-mer enrichment (R)
Target: TAR DNA-binding protein 43, full length, His tag (TARDBP, Homo sapiens, UniProt Q13148, residues 1-414)
ACGAAU: 0.719
UCCGUC: 0.602
AGACAC: 0.739
GUGACU: 0.82
UAUGCG: 1.02
GCCUGG: 1.53
GAGAGU: 1.45
AGUGGA: 1.57
UAACGU: 0.618
GUCAUC: 0.612
AGCAGC: 0.885
GUGGUU: 1.28

For quick reference, copied from above (sample 6):
UAACGU: 0.618
GCCUGG: 1.53
GUGACU: 0.82
UCCGUC: 0.602
AGUGGA: 1.57
GAGAGU: 1.45
GUGGUU: 1.28
AGACAC: 0.739
ACGAAU: 0.719
GUCAUC: 0.612
AGCAGC: 0.885
UAUGCG: 1.02
